Results gathered from unrelated publications.
A part holds a random share of what one study measured. Changes are numbered by the printed parent chain.

Set 1
Target: CCNE2, cyclin fold, Cln2 fusion (human)
Technique: yeast growth competition, sequencing
Medium: yeast
Setting: weak parent motif
Reference: not given
Reading: higher = stronger binding
Endpoint: normalised enrichment score
Starting sequence: RB1 docking peptide (human); PKPLKKLRFDIEG
Variant = PKPLKKLRFDNEG [I11N]; result = 1.31
Variant = PKPLQKLRFDIEG [K5Q]; result = 0.416
Variant = PKPLKKLRFDIEN [G13N]; result = -0.262
Variant = PKPQKKLRFDIEG [L4Q]; result = 0.693
Variant = PKPLKKLLFDIEG [R8L]; result = 0.405
Variant = PKPVKKLRFDIEG [L4V]; result = 0.142
Variant = PKPLKKLRVDIEG [F9V]; result = 0.825
Variant = PKPLKKLRFDISG [E12S]; result = 0.583
Variant = PKPLNKLRFDIEG [K5N]; result = 0.314

Set 2
Target: FOXO3, forkhead domain (mouse, UniProt Q9WVH4, residues 31-263)
Sequence of UniProt Q9WVH4 (31-263, looked up): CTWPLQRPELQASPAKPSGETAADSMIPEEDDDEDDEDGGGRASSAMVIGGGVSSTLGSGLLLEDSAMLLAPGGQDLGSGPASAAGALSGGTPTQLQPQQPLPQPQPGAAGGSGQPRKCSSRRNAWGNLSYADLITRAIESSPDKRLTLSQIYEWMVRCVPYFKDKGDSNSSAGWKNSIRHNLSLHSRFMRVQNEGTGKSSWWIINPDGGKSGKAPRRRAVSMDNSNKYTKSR
Technique: protein-binding microarray
Molecule type: hairpin DNA
Medium: in vitro
Concentration: not given
Setting: whole hairpin DNA, median over replicate spots
Reference: not given
Reading: higher = stronger binding
Endpoint: median fluorescence
Oligonucleotide = GAGGCCATACAAACAACGCCTCCTGGCGTTGTTTGTATGGCCTCACACTC; result = 4720 a.u.
Oligonucleotide = GAGGCCCGGTAACCAACGCCTCCTGGCGTTGGTTACCGGGCCTCACACTC (5mC at 7 37); result = 4420 a.u.
Oligonucleotide = GAGGCCATCGAAACAACGCCTCCTGGCGTTGTTTCGATGGCCTCACACTC (5mC at 35); result = 4280 a.u.
Oligonucleotide = GAGGCCATGTAAACGACGCCTCCTGGCGTCGTTTACATGGCCTCACACTC (5mC at 30); result = 4760 a.u.
Oligonucleotide = GAGGCCATGTAAACACCGCCTCCTGGCGGTGTTTACATGGCCTCACACTC (5mC at 16); result = 5200 a.u.
Oligonucleotide = GAGGCCATGTAAACCACGCCTCCTGGCGTGGTTTACATGGCCTCACACTC; result = 4220 a.u.
Oligonucleotide = GAGGCCATGCAAAGAACGCCTCCTGGCGTTCTTTGCATGGCCTCACACTC; result = 3920 a.u.
Oligonucleotide = GAGGCCATGCATACAACGCCTCCTGGCGTTGTATGCATGGCCTCACACTC; result = 4090 a.u.
Oligonucleotide = GAGGCCATGCAAACAAGGCCTCCTGGCCTTGTTTGCATGGCCTCACACTC (5mC at 28); result = 4760 a.u.
Oligonucleotide = GAGGCCATGCAAACCACGCCTCCTGGCGTGGTTTGCATGGCCTCACACTC (5mC at 15); result = 4440 a.u.
Oligonucleotide = GAGGCCATGTAACCAATGCCTCCTGGCATTGGTTACATGGCCTCACACTC; result = 3700 a.u.

Set 3
Target: Centromere-binding protein 1, full length, N-terminal tag (CBF1, Saccharomyces cerevisiae, UniProt P17106, residues 1-351)
Sequence of UniProt P17106 (whole entry, looked up): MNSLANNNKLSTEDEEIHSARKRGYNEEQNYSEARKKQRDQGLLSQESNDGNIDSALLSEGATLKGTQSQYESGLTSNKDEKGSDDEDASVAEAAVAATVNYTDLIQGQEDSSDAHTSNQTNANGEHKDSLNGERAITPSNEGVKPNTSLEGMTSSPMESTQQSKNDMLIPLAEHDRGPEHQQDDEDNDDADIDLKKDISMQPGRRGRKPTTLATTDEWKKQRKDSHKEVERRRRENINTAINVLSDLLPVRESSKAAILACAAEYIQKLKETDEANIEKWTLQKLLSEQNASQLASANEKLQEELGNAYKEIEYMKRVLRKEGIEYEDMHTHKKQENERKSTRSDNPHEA
Technique: protein-binding microarray
Molecule type: double-stranded DNA, one strand shown
Medium: in vitro
Concentration: 0.8 µM
Setting: whole 60-bp probe, no competitor
Reading: higher = stronger binding
Endpoint: fluorescence intensity
All sequences stand within: … GTCTTGATTCGCTTGACGCTGCTG
Oligonucleotide = CTATCTATTGATCTCTTCGTGATGCCCGGTTATTTC; result = 536 a.u.
Oligonucleotide = CTAATACATATGATTCACGTGAAAATTTTTATATTC; result = 4110 a.u.
Oligonucleotide = GAATGGATCCCTTCTGATGTATTTTCGGCGGCCTAG; result = 496 a.u.
Oligonucleotide = GAACTACTATTTAAGCACGTGCATAAATTGGGTTAG; result = 16300 a.u.
Oligonucleotide = CCTAACTACTATAGGAAGGTGACATAGCTTCGTACA; result = 532 a.u.
Oligonucleotide = GAATTTAAGACGAATGGTGTGAAATCGGAAATTTAG; result = 553 a.u.
Oligonucleotide = CCTAACTACTATAGTGACAAGATATAGCTTCGTACA; result = 503 a.u.
Oligonucleotide = CTAATGAAAATTTACCACGTCAACTATTTATGTTTC; result = 469 a.u.
Oligonucleotide = CTATGACTAATTCATCACCAAAGAGAAATATGCTTC; result = 535 a.u.
Oligonucleotide = CCTAACTACTATAACGTGGGCCCATAGCTTCGTACA; result = 509 a.u.
Oligonucleotide = GAATATTTCCCGTGTAACGTGATATATTTGTGATAG; result = 2390 a.u.
Oligonucleotide = GAAACATTGCTACATCAGCAGATCAAAGCATTTTAG; result = 654 a.u.

Further values, each from its own experiment
Molecule = PhoQ, residues 284 288 289 292 302 303 GLASVI; target = PhoP, residues 12 14 15 18 19 HEGLL (Escherichia coli, UniProt P23836); assay = Sort-seq, measured: YFP reporter; system = E. coli; setting = PhoQ-PhoP variant library, together with: 10 µM Mg2+; scale = reference: high Mg2+ state, higher = stronger signaling; endpoint = fold induction; result = 19.1

A few entries again (set 2):
Oligonucleotide = GAGGCCATGTAAACACCGCCTCCTGGCGGTGTTTACATGGCCTCACACTC (5mC at 16); result = 5200 a.u.
Oligonucleotide = GAGGCCATGTAAACCACGCCTCCTGGCGTGGTTTACATGGCCTCACACTC; result = 4220 a.u.
Oligonucleotide = GAGGCCATGCAAAGAACGCCTCCTGGCGTTCTTTGCATGGCCTCACACTC; result = 3920 a.u.
Oligonucleotide = GAGGCCATGCATACAACGCCTCCTGGCGTTGTATGCATGGCCTCACACTC; result = 4090 a.u.
